Measured values pooled from the literature.
Each line is one published result; not all experiments were run side by side. ± gives the spread as reported. In brackets after ≈: the same amount, converted by molar mass.

SMILES | organism | assay | test system | setting | how to read | quantity | value
CCOC(=O)c1c(-c2ccc(C)cc2)oc2nc(N3CC[C@H](F)C3)ccc12 | Trypanosoma cruzi |  | 3T3 host cells, Tulahuen beta-galactosidase | 6 days |  | EC50 | 10.9 µM
COc1cc(/C=C/c2cc(/C=C/c3ccc(O)c(OC)c3)n(C(=O)c3ccco3)n2)ccc1O | Spodoptera frugiperda | cell growth or viability, MTT | Sf9 | 100 µM, 72 h |  | inhibition | 69.8%
CC1(CCCCCCCCCCCCCCOCCCOP(=O)(O)CO[C@H](CO)Cn2ccc(N)nc2=O)COC1 | JC polyomavirus | qPCR | COS-7, MAD-4 |  | baseline: CC50 over EC50 | selectivity index | 1
CN(C)c1cc(CNCCC(C)(C)C)c(O)c2c1C[C@H]1C[C@H]3[C@H](N(C)C)C(O)=C(C(N)=O)C(=O)[C@@]3(O)C(O)=C1C2=O | Streptococcus pneumoniae |  | 157E | added: mouse serum | baseline: no serum | MIC increase | ≥ 2 dilutions
CCCOC(=O)N1c2cc(CNC)ccc2[C@H](NC(=O)C(=O)Nc2ccc(Cl)c(F)c2)[C@H]1CNC(=N)N | amphotropic murine leukemia virus | viral infection | Cf2Th-CD4/CCR5 |  |  | IC50 | > 300 µM
O=C(O)CN1C(=O)/C(=C/c2ccc(-c3ccc(N(c4ccccc4)c4ccccc4)cc3)cc2)NC1=S | Streptococcus pneumoniae | broth microdilution | ATCC 49619 |  |  | MBC/MIC ratio | 2
N#Cc1ccc(-c2cn([C@@H]3O[C@H](CO)[C@@H](O)[C@H]3O)c3ncnc(N)c23)cc1 | Trichomonas vaginalis | resorufin | G3, metronidazole-sensitive | 24 h + 2 h, 2% O2 |  | EC50 | 2.16 ± 0.03 µM
Cc1ccc2nc(-c3ccccc3)cn2c1 | Trypanosoma cruzi |  | 3T3 host cells, Tulahuen beta-galactosidase | 6 days |  | EC50 | > 20 µM
COc1ccc(C2OC(=O)c3ccc(C(C)C)c(O)c32)cc1OC (stereo not shown) | Naegleria fowleri | parasite growth, resazurin | ATCC30808 | 48 h |  | IC50 | 89.1 µM
C[C@@H](c1ccn(Cc2cc(F)ccc2F)n1)[C@](O)(Cn1cnnn1)c1ccc(F)cc1F | Candida tropicalis | growth, broth microdilution | 2718 | 24 h, 30 °C, ≥50% inhibition |  | MIC | < 0.008 µg/mL
CN(C)c1cc(CN2CCCCC2)c(O)c2c1C[C@H]1C[C@H]3[C@H](N(C)C)C(O)=C(C(N)=O)C(=O)[C@@]3(O)C(O)=C1C2=O | Streptococcus pneumoniae | microbial growth, broth dilution |  |  |  | MIC | < 0.06 µg/mL
CCCCCc1ccc2c(c1O)C(c1ccc(OC)c(OC)c1OC)OC2=O (stereo not shown) | Naegleria fowleri | trophozoite ATP, CellTiter-Glo | ATCC 30808 | concentration not given, 24 h, 37 °C | baseline: untreated | ATP level decrease | 67.1%
CC[C@H](C)[C@H](NC(=O)[C@H](CCCCN)NC(=O)[C@H](CC(N)=O)NC(=O)[C@H](CC(C)C)NC(=O)[C@H](Cc1ccccc1)NC(=O)[C@H](CCCCN)NC(=O)[C@H](CCCCNC(=N)N)NC(=O)[C@H](CC(C)C)NC(=O)[C@H](CC(C)C)NC(=O)[C@H](CCCCN)NC(=O)[C@H](CCCCNC(=N)N)NC(=O)[C@H](CC(C)C)NC(=O)CNC(C)=O)C(=O)N[C@@H](CCCCN)C(=O)N[C@@H](CCCCNC(=N)N)C(N)=O | all bacteria tested |  |  |  |  | geometric mean MIC | 4.42 µM
C[C@@H](c1ccn(Cc2cc(F)c(F)c(F)c2)n1)[C@](O)(Cn1cnnn1)c1ccc(F)cc1F | Candida tropicalis | growth, broth microdilution | 2718 | 24 h, 30 °C, ≥50% inhibition |  | MIC | < 0.008 µg/mL
C=CCNCc1cc(N(C)C)c2c(c1O)C(=O)C1=C(O)[C@]3(O)C(=O)C(C(N)=O)=C(O)[C@@H](N(C)C)[C@@H]3C[C@@H]1C2 | Streptococcus pneumoniae | microbial growth, broth dilution |  |  |  | MIC | 0.5 µg/mL (≈ 0.95 µM)
CC(=O)Nc1cccc(Cn2nc(C)c3c(C)n(-c4ccccc4)nc3c2=O)c1 | Zika virus |  | Vero, MR766 |  | baseline: CC50 over EC50 | selectivity index | 1.8

SMILES | organism | assay | test system | setting | how to read | quantity | value
C=C(C)[C@@H]1CC[C@]2(C(N)=O)CC[C@]3(C)[C@H](CC[C@@H]4[C@@]5(C)CCCNC(C)(C)[C@@H]5CC[C@]43C)[C@@H]12 | Human cytomegalovirus | cytopathic effect | HFF, AD169 |  |  | EC90 | > 1.2 µM
c1ccc(-c2nc(-c3ccc4ccccc4c3)c[nH]2)cc1 | Schistosoma mansoni |  | female worms | 50 µM |  | worm killing | 0%
CN(C)c1cc(CNCC2CCCCC2)c(O)c2c1C[C@H]1C[C@H]3[C@H](N(C)C)C(O)=C(C(N)=O)C(=O)[C@@]3(O)C(O)=C1C2=O | Streptococcus pneumoniae | microbial growth, broth dilution |  |  |  | MIC | < 0.06 µg/mL
Nc1ncnc2c1c(-c1ccccc1)cn2[C@H]1C[C@H](O)[C@@H](CO)O1 | Trichomonas vaginalis | resorufin | G3, metronidazole-sensitive | 24 h + 2 h, 2% O2 |  | EC50 | 1.56 ± 0.27 µM
C[C@@H](c1ccn(Cc2cccc(C(F)(F)F)c2)n1)[C@](O)(Cn1cnnn1)c1ccc(F)cc1F | Candida tropicalis | growth, broth microdilution | 2718 | 24 h, 30 °C, ≥50% inhibition |  | MIC | < 0.008 µg/mL
CC1(C)CC[C@]23CC[C@]4(C)[C@H](CC[C@@H]5[C@@]6(C)CCCNC(C)(C)[C@@H]6CC[C@]54C)[C@H]2[C@H]1OC3 | Human cytomegalovirus | cytopathic effect | HFF, AD169 |  |  | EC90 | > 30 µM
CN(C)Cc1cc(N(C)C)c2c(c1O)C(=O)C1=C(O)[C@]3(O)C(=O)C(C(N)=O)=C(O)[C@@H](N(C)C)[C@@H]3C[C@@H]1C2 | Streptococcus pneumoniae |  | ATCC 700905, Tet M ribosome protection |  |  | MIC | 0.5 µg/mL (≈ 0.972 µM)
Cc1ccc2nc(-c3ccccc3)c(CN3CCN(c4ccccc4)CC3)n2c1 | Trypanosoma cruzi |  | 3T3 host cells, Tulahuen beta-galactosidase | 6 days |  | EC50 | 5.2 µM
S=c1[nH]c2cccc(Cl)c2n1CCOc1ccccc1 | Saccharomyces cerevisiae | reporter gene, refers to: Rlm1-lacZ |  | up to 20 µM, added: Calcofluor white |  | inhibition | inhibited
CN(C)c1cc(CNC(C)(C)C)c(O)c2c1C[C@H]1C[C@H]3[C@H](N(C)C)C(O)=C(C(N)=O)C(=O)[C@@]3(O)C(O)=C1C2=O | Streptococcus pneumoniae |  | ATCC 700905, Tet M ribosome protection |  |  | MIC | 2 µg/mL (≈ 3.69 µM)
COc1ccc(Nc2c(C#N)cnc3ccc(Cl)cc23)cc1 | Trypanosoma cruzi | parasite growth |  | 72 h, epimastigote |  | IC50 | < 1 µM
CC[C@H](C)[C@H](NC(=O)[C@H](CCCN)NC(=O)[C@H](CC(N)=O)NC(=O)[C@H](Cc1c[nH]c2ccccc12)NC(=O)[C@H](Cc1ccccc1)NC(=O)[C@H](CCCN)NC(=O)[C@H](CCCNC(=N)N)NC(=O)[C@H](CC(C)C)NC(=O)[C@H](Cc1c[nH]c2ccccc12)NC(=O)[C@H](CCCN)NC(=O)[C@H](CCCNC(=N)N)NC(=O)[C@H](CC(C)C)NC(=O)CNC(C)=O)C(=O)N[C@@H](CCCN)C(=O)N[C@@H](CCCNC(=N)N)C(N)=O | Gram-negative bacteria |  |  |  |  | geometric mean MIC | 3.72 µM
C=C(C)[C@@H]1CC[C@]2(COS(=O)(=O)c3ccc(C)cc3)CC[C@]3(C)[C@H](CC[C@@H]4[C@@]5(C)CCCNC(C)(C)[C@@H]5CC[C@]43C)[C@@H]12 | Human cytomegalovirus | cytopathic effect | HFF, AD169 |  |  | EC90 | > 1.2 µM
CN(C)c1cc(CNCC(N)=O)c(O)c2c1C[C@H]1C[C@H]3[C@H](N(C)C)C(O)=C(C(N)=O)C(=O)[C@@]3(O)C(O)=C1C2=O | Streptococcus pneumoniae |  | ATCC 700905, Tet M ribosome protection |  |  | MIC | 2 µg/mL (≈ 3.68 µM)
CC[C@@H](C)[C@@H](NC(=O)[C@@H](C)NC(=O)[C@@H](CCCCN)NC(=O)[C@@H](CC(C)C)NC(=O)[C@@H](C)NC(=O)[C@H](NC(=O)[C@@H](CCCCN)NC(=O)[C@@H](CC(C)C)NC(=O)[C@H](NC(=O)[C@@H](CCCCN)NC(=O)[C@@H](CCCCN)NC(=O)[C@@H](CCCCN)NC(=O)[C@@H](C)NC(=O)[C@@H](CCCCN)NC(=O)[C@@H](CO)NC(=O)[C@@H](Cc1ccccc1)NC(=O)[C@H](NC(=O)[C@@H](CCCCN)NC(=O)[C@@H](CC(C)C)NC(=O)[C@@H](Cc1ccccc1)NC(=O)[C@@H](CO)NC(=O)[C@@H](CCCCN)NC(=O)[C@@H](Cc1c[nH]c2ccccc12)NC(=O)[C@@H](CCCCN)NC(C)=O)[C@H](C)O)C(C)C)[C@H](C)O)C(=O)N[C@H](CO)C(=O)N[C@H](CCCCN)C(N)=O | Acinetobacter baumannii |  | 11 isolates |  |  | MIC geometric mean | 0.6 µM (≈ 1.83 µg/mL)

Excerpt of the above:
SMILES | organism | assay | test system | setting | how to read | quantity | value
CN(C)c1cc(CN2CCCCC2)c(O)c2c1C[C@H]1C[C@H]3[C@H](N(C)C)C(O)=C(C(N)=O)C(=O)[C@@]3(O)C(O)=C1C2=O | Streptococcus pneumoniae | microbial growth, broth dilution |  |  |  | MIC | < 0.06 µg/mL
Cc1ccc2nc(-c3ccccc3)cn2c1 | Trypanosoma cruzi |  | 3T3 host cells, Tulahuen beta-galactosidase | 6 days |  | EC50 | > 20 µM
COc1cc(/C=C/c2cc(/C=C/c3ccc(O)c(OC)c3)n(C(=O)c3ccco3)n2)ccc1O | Spodoptera frugiperda | cell growth or viability, MTT | Sf9 | 100 µM, 72 h |  | inhibition | 69.8%
